Experimental data gathered from unrelated publications.
Lines come from different studies, so protocols differ. “And” joins repeats or separate records; there may be more than shown. ± marks the error that the study gave.
Luciferin 4-monooxygenase: Luciferin 4-monooxygenase (Photinus pyralis, UniProt P08659)
DRD1: D(1A) dopamine receptor (DRD1, Homo sapiens, UniProt P21728)
Palmitoyl-protein thioesterase 1: Palmitoyl-protein thioesterase 1 (Homo sapiens, UniProt P50897)
Adhesin FmlH lectin domain: Adhesin FmlH, lectin domain (Escherichia coli, UniProt Q1RBS0)
HTR1E: 5-hydroxytryptamine receptor 1E (HTR1E, Homo sapiens, UniProt P28566)

| SMILES | target | assay | test system | setting | scale | inhibition |
| --- | --- | --- | --- | --- | --- | --- |
| Cc1ccc(C2=NC3(CCN(C)CC3)NC(c3ccccc3O)C2)cc1 (centres unmarked) | Luciferin 4-monooxygenase | luciferase luminescence, inhibitor | cell-free | 50 µM, counter-screen |  | 8.42% |
| Cc1cc(NS(=O)(=O)c2ccc(N=NN(O)c3ccccc3)cc2)no1 | α-glucosidase, rat intestine | enzyme activity |  | 20 µg/mL, added: 4-nitrophenyl α-D-glucopyranoside |  | 5 ± 0.59% |
| COc1ccc(Cl)cc1S(=O)(=O)Nc1cncc(C(N)=O)c1 | Alkaline phosphatase, tissue-nonspecific isozyme (Mus musculus, UniProt P09242) | enzyme activity | mouse, plasma | oral, 10 mg/kg single dose, 8 h |  | > 75% |
| CCCN(O)N=Nc1ccc(S(=O)(=O)Nc2nccs2)cc1 | α-glucosidase, rat intestine | enzyme activity |  | 180 µg/mL, added: 4-nitrophenyl α-D-glucopyranoside |  | 40 ± 0.041% |
| COc1ccc2c(c1)C(=O)N(CCN1CCN(c3ccccc3OC)CC1)C2 | DRD1 | radioligand binding |  | concentration not given, added: [3H]SCH23390 |  | 29.3% |
| Cc1noc(NS(=O)(=O)c2ccc(N=NN(O)c3ccccc3)cc2)c1C | α-glucosidase, rat intestine | enzyme activity |  | 120 µg/mL, added: 4-nitrophenyl α-D-glucopyranoside |  | 27.5 ± 0.097% |
| Cc1c(C)c2c(c(C)c1O)CCC(C)(C(=O)O)O2 (centres unmarked) | Palmitoyl-protein thioesterase 1 | Spectrum Collection screen |  | concentration not given, added: substrate 20 µM |  | 62% |
| OC[C@H]1O[C@@H](Oc2cc3c(O)cc(O)cc3[o+]c2-c2ccc(O)c(O)c2)[C@H](O)[C@@H](O)[C@H]1O | Adhesin FmlH lectin domain | binding to desialylated mucin, ELISA competition | UPEC UTI89 | 100 µM |  | 28.8 ± 6.5% |
| Cc1ccnc(C)c1OC[C@H]1CN(CCN2CCc3ccccc32)CCO1 | DRD1 | radioligand binding |  | concentration not given, added: [3H]SCH23390 |  | 33.9% |
| CCc1nc2cc(-c3noc(-c4ccccc4C)n3)ccc2o1 | Luciferin 4-monooxygenase | luciferase luminescence, inhibitor | cell-free | 50 µM, counter-screen |  | 85.7% |
| OCCCN1CC[C@@H]2C[C@H]1c1cc(-c3ccc(C(F)(F)F)cc3)ccc12 | Delta-type opioid receptor (OPRD1, Homo sapiens, UniProt P41143) | radioligand binding, PDSP competition binding |  | 10 µM |  | < 50% |
| CCN(O)N=Nc1ccc(S(=O)(=O)Nc2nccs2)cc1 | α-glucosidase, rat intestine | enzyme activity |  | 60 µg/mL, added: 4-nitrophenyl α-D-glucopyranoside |  | 20 ± 1.38% |
| Cn1cncc1[C@@](N)(c1ccc(Cl)cc1)c1ccc2c(c1)c(-c1cccc(Cl)c1)cc(=O)n2C | Protein farnesyltransferase (Homo sapiens, UniProt P49354+P49356) | enzyme activity, inhibitor, scintillation proximity | leukaemia patients, leukaemic blasts | 300 mg/m^2, 10 days, median | reference: pretreatment | 87% |
| c1cncc(OC[C@H]2CN(CCN3CCc4ccccc43)CCO2)c1 | DRD1 | radioligand binding |  | concentration not given, added: [3H]SCH23390 |  | 52.4% |
| CN1CC(Oc2cnc(C#N)cc2-c2ccn3nc(NC(=O)C4CC4)cc3c2)C1 | Transient receptor potential cation channel subfamily M member 7 (TRPM7, Homo sapiens, UniProt Q96QT4) | kinase activity, inhibitor |  | 1 µM, added: ATP 45 µM |  | 6% |
| CCN(Cc1ccccc1C(F)(F)F)C(=O)C1CCN(S(=O)(=O)c2ccc3[nH]ncc3c2)CC1 | rat NMDA receptor | radioligand binding |  | 10 µM, agonist site |  | 1% |
| CCS(=O)(=O)c1nc(S(=O)(=O)c2ccccc2Cl)c(N2CCN(C)C(=O)[C@H]2C)s1 | HTR1E |  |  | 10 µM |  | 10.7% |
| CC(NC(=O)c1cccc(-c2ccc(N3CCCCCC3)nc2)c1)c1cccnc1 (centres unmarked) | Luciferin 4-monooxygenase | luciferase luminescence, inhibitor | cell-free | 50 µM, counter-screen |  | -2.61% |
| Cc1cc(NS(=O)(=O)c2ccc(N=NN(C)O)cc2)no1 | α-glucosidase, rat intestine | enzyme activity |  | 180 µg/mL, added: 4-nitrophenyl α-D-glucopyranoside |  | 42.5% |
| O=C(Nc1cccc2c(=O)cc(-c3nnn[nH]3)oc12)c1ccc(OCCCCc2ccccc2)cc1 | LRRC8A/LRRC8C (Homo sapiens, UniProt Q8IWT6+Q8TDW0, M48D/T48D) | ion current, whole-cell patch clamp | HCT LRRC8-/- cells | 1 µM, -100 mV, T48D/M48D heteromers |  | 0.424% and 4.74% and 3.66% |
| COc1cccc(OC[C@@H]2CN(CC(=O)N3CCc4ccccc43)CCO2)c1 | DRD1 | radioligand binding |  | concentration not given, added: [3H]SCH23390 |  | 26.3% |
| N=C(N)c1ccc(OCCCCCOc2ccc(C(=N)N)cc2)cc1 | Vitamin K-dependent protein C (PROC, Homo sapiens, UniProt P04070) |  |  | concentration not given |  | > 90% |
| Cc1ncc2c(c1-c1noc(-c3cccc(N4CCOCC4)c3)n1)CCNC2 | Luciferin 4-monooxygenase | luciferase luminescence, inhibitor | cell-free | 50 µM, counter-screen |  | 9.81% |
| CCCCOC(=O)c1ccc(O)cc1 | Palmitoyl-protein thioesterase 1 | Spectrum Collection screen |  | concentration not given, added: substrate 20 µM |  | 70% |
| O=c1cc(N2CCCCC2)cnn1CC1COc2ccccc2O1 (centres unmarked) | Luciferin 4-monooxygenase | luciferase luminescence, inhibitor | cell-free | 50 µM, counter-screen |  | 96.8% |

| SMILES | target | assay | test system | setting | scale | inhibition |
| --- | --- | --- | --- | --- | --- | --- |
| COc1cc2c(cc1OC)/C(=C/CCCCCCOCc1ccccc1)C=C2C(F)(F)F | Protein disulfide-isomerase (P4HB, Homo sapiens, UniProt P07237) | enzyme activity, inhibitor, insulin reduction |  | concentration not given, biochemical |  | no effect |
| COc1cc2c3c(c1OC)-c1cc4c(cc1CC3N(C)CC2c1ccccc1)OCO4 (centres unmarked) | NMDA | binding, radioligand binding |  | concentration not given |  | < 50% |
| CCN1CCN(Cc2ccc(NC(=O)c3ccc(C)c(-c4ccc5nc(NC(=O)C6CC6)cn5n4)c3)cc2C(F)(F)F)CC1 | Tyrosine-protein kinase JAK2 (JAK2, Homo sapiens, UniProt O60674, V617F) | kinase activity, inhibitor, KiNativ profiling | SET-2 | 5 µM |  | 85.5% |
| CC(C)(NC(=O)O[C@@H]1CN2CCC1CC2)c1csc(-c2ccc(F)cc2)n1 | Nicotinamide N-methyltransferase (NNMT, Homo sapiens, UniProt P40261) | enzyme activity, inhibitor |  | 100 µM |  | no inhibition |
| COc1cccc(OC[C@@H]2CN(CCN3CCc4ccccc43)CCO2)c1 | HTR1E | radioligand binding |  | concentration not given, added: [3H]5-HT |  | -10.8% |
| COc1ccc(F)cc1C(=O)NCc1ccc(-c2nn([C@@H](C)C(F)(F)F)c(N)c2C(N)=O)cc1 | Serine/threonine-protein kinase OSR1 (OXSR1, Homo sapiens, UniProt O95747) | target engagement, competitive chemoproteomics | human PBMCs | 10 µM |  | 1.1% |
| O=C(CN1CCO[C@@H](COc2ccccn2)C1)N1CCc2ccccc21 | HTR1E | radioligand binding |  | concentration not given, added: [3H]5-HT |  | -4.6% |
| CO[C@H]1/C=C/O[C@@]2(C)Oc3c(C)c(O)c4c(O)c(c(/C=N/N5CCN(C)CC5)c(O)c4c3C2=O)NC(=O)/C(C)=C\C=C\[C@H](C)[C@H](O)[C@@H](C)[C@@H](O)[C@@H](C)[C@H](OC(C)=O)[C@@H]1C | Palmitoyl-protein thioesterase 1 | Spectrum Collection screen |  | concentration not given, added: substrate 20 µM |  | 70.1% |
| CCN(O)N=Nc1ccc(S(=O)(=O)Nc2cc(C)on2)cc1 | α-glucosidase, rat intestine | enzyme activity |  | 20 µg/mL, added: 4-nitrophenyl α-D-glucopyranoside |  | 20 ± 1.38% |
| CC(=O)N[C@H]1[C@H](Oc2ccc([N+](=O)[O-])cc2)O[C@H](CO)[C@@H](O)[C@@H]1O[C@@H]1O[C@H](CO)[C@H](O)[C@H](O)[C@H]1O | Adhesin FmlH lectin domain | binding to desialylated mucin, ELISA competition | UPEC UTI89 | 100 µM |  | -3.6 ± 1% |
| CN1CCN(c2cc(-c3ccncc3)c(-c3ccc4ccccc4c3)nn2)CC1 | Bombesin receptor subtype-3 (BRS3, Homo sapiens, UniProt P32247) | antagonist, FLIPR |  | 10 µM |  | -9.1% |
| CC(CN1c2ccccc2Sc2ccccc21)N(C)C (centres unmarked) | Palmitoyl-protein thioesterase 1 | Spectrum Collection screen |  | concentration not given, added: substrate 20 µM |  | 63.7% |
| COc1cc(C(=O)NS(=O)(=O)c2ccccc2C)ccc1Cc1cn(C)c2ccc(NC(=O)OC3CCCC3)cc12 | Volume-regulated anion channel subunit LRRC8C, part LRRC8A IL1 chimera (LRRC8C, Homo sapiens, UniProt Q8TDW0, Y126F) | ion current, inhibitor, whole-cell patch clamp | HCT LRRC8-/- cells | 30 µM, +100 mV |  | 84.2% and 97.8% and 87.4% and 95.9% |
| O=C(CN1CCO[C@H](COc2cccnc2)C1)N1CCc2ccccc21 | DRD1 | radioligand binding |  | concentration not given, added: [3H]SCH23390 |  | 2.5% |
| O[C@@H]1CN(CCCc2ccccc2)CC[C@H]1N1CCCCCC1 | Luciferin 4-monooxygenase | luciferase luminescence, inhibitor | cell-free | 50 µM, counter-screen |  | 2.64% |
| CC[C@@H]1[C@H](F)C(=O)N[C@@H]1COc1nccc2cc(C(N)=O)c(OC)cc12 | Mixed lineage kinase domain-like protein (MLKL, Homo sapiens, UniProt Q8NB16) | ATP-site probe binding, ActivX profiling | THP-1 cell lysate | 0.2 mM, Lys1 site |  | 16.3% |
| O=C(NO)c1ccc(CN2CCCCc3ccccc32)c(F)c1 | Sodium-dependent noradrenaline transporter (SLC6A2, Homo sapiens, UniProt P23975) | radioligand binding, radioligand displacement |  | 10 µM, mean of replicates |  | -21.8% |
| CCCN(O)N=Nc1ccc(S(=O)(=O)Nc2onc(C)c2C)cc1 | α-glucosidase, rat intestine | enzyme activity |  | 180 µg/mL, added: 4-nitrophenyl α-D-glucopyranoside |  | 37.5 ± 0.09% |
| CC(C)c1noc2ncc(C(=O)c3ccccc3O)cc12 | ATP-sensitive inward rectifier potassium channel 10 (Homo sapiens, UniProt P78508) | ion current, inhibitor, whole-cell patch clamp |  | 10 µM |  | 6.64% and 3.35% and 3.37% and 8.03% and 2.19% |
| CN(C(=O)n1cnc(-c2ccc[n+]([O-])c2)c1)C1CCCCC1 | Oxytocin receptor (OXTR, Homo sapiens, UniProt P30559) |  |  | 10 µM |  | 1.5% |
| Cc1ncccc1OC[C@@H]1CN(CCN2CCc3ccccc32)CCO1 | DRD1 | radioligand binding |  | concentration not given, added: [3H]SCH23390 |  | 41.3% |
| Cc1cc(C)nc(Cn2ncc(N(C)Cc3ccccc3)cc2=O)n1 | Luciferin 4-monooxygenase | luciferase luminescence, inhibitor | cell-free | 50 µM, counter-screen |  | 12% |
| CCN(O)N=Nc1ccc(S(=O)(=O)Nc2onc(C)c2C)cc1 | α-glucosidase, rat intestine | enzyme activity |  | 180 µg/mL, added: 4-nitrophenyl α-D-glucopyranoside |  | 37.5 ± 0.38% |
| CCN(CC)CCNc1ccc(CO)c2sc3ccccc3c(=O)c12 | Palmitoyl-protein thioesterase 1 | Spectrum Collection screen |  | concentration not given, added: substrate 20 µM |  | 80.6% |
| NNc1ccc2ccccc2c1 | Cytochrome b5 type B (CYB5B, Homo sapiens, UniProt O43169) | MS-based ABPP-SILAC | HEK-293T lysate | 1 µM |  | inhibited |
